Assay results pooled from the literature.
Each numbered part is a random draw from the data of one study; scales do not carry over between parts. Several values in a cell are separate wells, animals, samples, runs or records.
Chain of UniProt P42336 (whole entry, unmodified, looked up): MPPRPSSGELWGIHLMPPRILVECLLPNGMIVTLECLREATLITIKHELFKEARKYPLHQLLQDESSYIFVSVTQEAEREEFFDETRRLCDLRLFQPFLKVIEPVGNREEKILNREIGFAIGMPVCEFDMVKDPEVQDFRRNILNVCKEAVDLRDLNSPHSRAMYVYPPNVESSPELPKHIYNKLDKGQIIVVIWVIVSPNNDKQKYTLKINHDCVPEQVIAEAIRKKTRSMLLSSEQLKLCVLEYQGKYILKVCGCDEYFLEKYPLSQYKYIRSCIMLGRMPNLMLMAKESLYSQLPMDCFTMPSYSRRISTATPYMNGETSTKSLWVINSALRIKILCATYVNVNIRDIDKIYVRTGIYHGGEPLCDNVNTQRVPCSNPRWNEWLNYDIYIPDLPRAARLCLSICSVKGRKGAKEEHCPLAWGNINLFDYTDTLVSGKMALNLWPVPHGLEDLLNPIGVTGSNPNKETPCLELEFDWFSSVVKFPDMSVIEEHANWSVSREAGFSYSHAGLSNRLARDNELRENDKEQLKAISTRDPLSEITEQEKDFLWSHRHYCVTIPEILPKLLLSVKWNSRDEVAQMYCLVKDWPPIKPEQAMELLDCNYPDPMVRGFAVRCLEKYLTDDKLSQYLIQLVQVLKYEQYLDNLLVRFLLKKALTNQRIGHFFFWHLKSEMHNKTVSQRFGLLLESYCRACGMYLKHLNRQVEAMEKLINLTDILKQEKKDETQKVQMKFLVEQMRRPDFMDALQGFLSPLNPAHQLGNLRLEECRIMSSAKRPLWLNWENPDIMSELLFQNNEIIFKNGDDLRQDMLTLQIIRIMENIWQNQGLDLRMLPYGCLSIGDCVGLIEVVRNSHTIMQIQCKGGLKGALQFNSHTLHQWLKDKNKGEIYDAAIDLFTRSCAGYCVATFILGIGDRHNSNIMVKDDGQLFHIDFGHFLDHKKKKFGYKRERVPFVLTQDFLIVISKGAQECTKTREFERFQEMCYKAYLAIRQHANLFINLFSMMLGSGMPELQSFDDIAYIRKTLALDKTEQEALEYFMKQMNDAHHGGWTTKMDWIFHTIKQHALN
Chain of UniProt P29317 (whole entry, looked up): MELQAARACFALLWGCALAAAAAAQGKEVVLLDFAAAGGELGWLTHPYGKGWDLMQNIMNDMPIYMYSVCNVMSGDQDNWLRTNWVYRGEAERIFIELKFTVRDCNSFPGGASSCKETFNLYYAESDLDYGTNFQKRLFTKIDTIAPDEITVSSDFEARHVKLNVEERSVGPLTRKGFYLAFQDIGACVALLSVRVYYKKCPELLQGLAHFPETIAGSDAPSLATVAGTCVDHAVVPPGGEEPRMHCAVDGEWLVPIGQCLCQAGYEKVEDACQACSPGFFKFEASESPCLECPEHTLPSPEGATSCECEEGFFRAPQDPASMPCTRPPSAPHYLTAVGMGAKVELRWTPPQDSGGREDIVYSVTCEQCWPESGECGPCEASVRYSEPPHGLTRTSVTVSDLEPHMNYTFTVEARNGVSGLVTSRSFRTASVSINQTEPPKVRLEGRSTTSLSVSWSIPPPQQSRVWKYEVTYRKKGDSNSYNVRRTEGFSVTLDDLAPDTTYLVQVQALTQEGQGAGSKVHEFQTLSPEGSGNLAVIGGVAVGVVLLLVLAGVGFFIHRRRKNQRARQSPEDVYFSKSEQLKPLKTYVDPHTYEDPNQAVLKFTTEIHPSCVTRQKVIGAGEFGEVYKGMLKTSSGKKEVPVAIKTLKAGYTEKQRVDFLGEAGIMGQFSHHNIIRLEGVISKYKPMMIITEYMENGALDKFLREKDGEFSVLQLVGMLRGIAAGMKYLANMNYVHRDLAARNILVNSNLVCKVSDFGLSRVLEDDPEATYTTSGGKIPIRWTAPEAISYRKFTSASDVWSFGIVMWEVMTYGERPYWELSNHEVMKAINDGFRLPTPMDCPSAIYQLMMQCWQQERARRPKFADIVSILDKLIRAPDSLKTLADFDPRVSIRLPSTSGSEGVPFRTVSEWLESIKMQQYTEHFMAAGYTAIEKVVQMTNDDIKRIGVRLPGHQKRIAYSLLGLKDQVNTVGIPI

Series 1 — effect on: enzyme activity; mode: inhibitor; concentration: 10 µM
Target: Calcium/calmodulin-dependent protein kinase type II subunit alpha (CAMK2A, Homo sapiens, UniProt Q9UQM7)
Chain of UniProt Q9UQM7 (whole entry, looked up): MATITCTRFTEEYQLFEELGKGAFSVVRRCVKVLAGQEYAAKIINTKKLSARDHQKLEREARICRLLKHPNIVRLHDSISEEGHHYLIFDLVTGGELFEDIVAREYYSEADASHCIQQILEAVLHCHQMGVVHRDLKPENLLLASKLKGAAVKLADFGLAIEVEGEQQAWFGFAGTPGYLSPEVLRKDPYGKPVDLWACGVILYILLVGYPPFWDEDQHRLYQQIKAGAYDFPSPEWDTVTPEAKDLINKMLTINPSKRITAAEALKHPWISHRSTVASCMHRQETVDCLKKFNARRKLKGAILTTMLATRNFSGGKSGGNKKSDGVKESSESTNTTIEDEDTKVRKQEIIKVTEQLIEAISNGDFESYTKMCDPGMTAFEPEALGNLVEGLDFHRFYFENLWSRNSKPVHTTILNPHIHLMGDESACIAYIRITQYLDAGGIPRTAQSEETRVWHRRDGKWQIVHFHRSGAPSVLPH
SMILES	inhibition [%]
CC(=O)NCCCCCC(=O)O	-11
CC(C)Nc1nc2cc(Cl)c(Cl)cc2n1[C@H]1O[C@@H](CO)[C@H](O)[C@@H]1O	-10
CC#CC(=O)N1CCC[C@H]1c1nc(-c2ccc(C(=O)Nc3ccccn3)cc2)c2c(N)nccn12	10
COc1ccc2c(c1OC)C(=O)OC2	3
CC(=O)O[C@]1(C(C)=O)CC[C@H]2[C@@H]3CCC4=CC(=O)CCC4=C3[C@@H](c3ccc(N(C)C)cc3)C[C@@]21C	-14
CCCCCCCCCCCCCCCCCCCCCC(=O)O	-9
O=C(/C=C/c1ccc(O)c(O)c1)O[C@H]1[C@H](O)C[C@](O)(C(=O)O)C[C@H]1O	10

Series 2 — effect on: enzyme activity; mode: inhibitor; concentration: 1 µM
Compound: CO[C@@H]1[C@H](N(C)C(=O)c2ccccc2)C[C@H]2O[C@]1(C)n1c3ccccc3c3c4c(c5c6ccccc6n2c5c31)C(=O)NC4
target	inhibition
Glycogen synthase kinase-3 beta (GSK3B, Homo sapiens, UniProt P49841)	20%
Atypical kinase COQ8A, mitochondrial (COQ8A, Homo sapiens, UniProt Q8NI60)	0%
Calcium/calmodulin-dependent protein kinase type IV (CAMK4, Homo sapiens, UniProt Q16566)	0%
Phosphatidylinositol 4,5-bisphosphate 3-kinase catalytic subunit alpha isoform (PIK3CA, Homo sapiens, UniProt P42336, I800L)	0%
Cyclin-dependent kinase 13 (CDK13, Homo sapiens, UniProt Q14004)	16%
Eukaryotic translation initiation factor 2-alpha kinase 1 (EIF2AK1, Homo sapiens, UniProt Q9BQI3)	0%

Series 3 — effect on: cell-free assay; method: competition with immobilised ligand; concentration: 1 µM
Structure (SMILES): Cc1c(NC(=O)c2cc(C(N)=O)nc3cc(F)ccc23)c(C(F)(F)F)nn1Cc1ccc(C#N)cc1
target	remaining binding [%]
Glycogen synthase kinase-3 alpha (GSK3A, Homo sapiens, UniProt P49840)	100
Serine/threonine-protein kinase PRP4 homolog (PRPF4B, Homo sapiens, UniProt Q13523)	93
Leucine-rich repeat serine/threonine-protein kinase 2 (LRRK2, Homo sapiens, UniProt Q5S007, G2019S)	100
Cyclin-dependent kinase 4 (CDK4, Homo sapiens, UniProt P11802)	100
Membrane-associated tyrosine- and threonine-specific cdc2-inhibitory kinase (PKMYT1, Homo sapiens, UniProt Q99640)	99
Serine/threonine-protein kinase Chk1 (CHEK1, Homo sapiens, UniProt O14757)	75
Phosphatidylinositol 4,5-bisphosphate 3-kinase catalytic subunit beta isoform (PIK3CB, Homo sapiens, UniProt P42338)	83
Casein kinase I isoform gamma-2 (CSNK1G2, Homo sapiens, UniProt P78368)	88
Serine/threonine-protein kinase Sgk1 (SGK1, Homo sapiens, UniProt O00141)	90
Mitogen-activated protein kinase kinase kinase 5 (MAP3K5, Homo sapiens, UniProt Q99683)	91
Mitogen-activated protein kinase 6 (MAPK6, Homo sapiens, UniProt Q16659)	88
Serine/threonine-protein kinase LATS1 (LATS1, Homo sapiens, UniProt O95835)	94
Serine/threonine-protein kinase pim-1 (PIM1, Homo sapiens, UniProt P11309)	86
Focal adhesion kinase 1 (PTK2, Homo sapiens, UniProt Q05397)	96
Tyrosine-protein kinase ABL1, non-phosphorylated (ABL1, Homo sapiens, UniProt P00519, T315I)	100
Calcium/calmodulin-dependent protein kinase type 1B (PNCK, Homo sapiens, UniProt Q6P2M8)	64
Mitogen-activated protein kinase 4 (MAPK4, Homo sapiens, UniProt P31152)	76
Protein-tyrosine kinase 2-beta (PTK2B, Homo sapiens, UniProt Q14289)	95
Phosphatidylinositol 4-kinase beta (PI4KB, Homo sapiens, UniProt Q9UBF8)	77
Beta-adrenergic receptor kinase 1 (GRK2, Homo sapiens, UniProt P25098)	87
Epidermal growth factor receptor (EGFR, Homo sapiens, UniProt P00533, G719C)	83
Tyrosine-protein kinase JAK1, JH2 (JAK1, Homo sapiens, UniProt P23458)	86
Ephrin type-A receptor 2 (EPHA2, Homo sapiens, UniProt P29317)	81
Receptor-type tyrosine-protein kinase FLT3 (FLT3, Homo sapiens, UniProt P36888, R834Q)	83
Phosphatidylinositol 4,5-bisphosphate 3-kinase catalytic subunit alpha isoform (PIK3CA, Homo sapiens, UniProt P42336, E545K)	73

Series 4 — effect on: enzyme activity; mode: inhibitor; concentration: 77 µM; baseline: untreated
Target: DNA polymerase theta, ATPase domain (POLQ, Homo sapiens, UniProt O75417)
Chain of UniProt O75417 (whole entry, unmodified, looked up): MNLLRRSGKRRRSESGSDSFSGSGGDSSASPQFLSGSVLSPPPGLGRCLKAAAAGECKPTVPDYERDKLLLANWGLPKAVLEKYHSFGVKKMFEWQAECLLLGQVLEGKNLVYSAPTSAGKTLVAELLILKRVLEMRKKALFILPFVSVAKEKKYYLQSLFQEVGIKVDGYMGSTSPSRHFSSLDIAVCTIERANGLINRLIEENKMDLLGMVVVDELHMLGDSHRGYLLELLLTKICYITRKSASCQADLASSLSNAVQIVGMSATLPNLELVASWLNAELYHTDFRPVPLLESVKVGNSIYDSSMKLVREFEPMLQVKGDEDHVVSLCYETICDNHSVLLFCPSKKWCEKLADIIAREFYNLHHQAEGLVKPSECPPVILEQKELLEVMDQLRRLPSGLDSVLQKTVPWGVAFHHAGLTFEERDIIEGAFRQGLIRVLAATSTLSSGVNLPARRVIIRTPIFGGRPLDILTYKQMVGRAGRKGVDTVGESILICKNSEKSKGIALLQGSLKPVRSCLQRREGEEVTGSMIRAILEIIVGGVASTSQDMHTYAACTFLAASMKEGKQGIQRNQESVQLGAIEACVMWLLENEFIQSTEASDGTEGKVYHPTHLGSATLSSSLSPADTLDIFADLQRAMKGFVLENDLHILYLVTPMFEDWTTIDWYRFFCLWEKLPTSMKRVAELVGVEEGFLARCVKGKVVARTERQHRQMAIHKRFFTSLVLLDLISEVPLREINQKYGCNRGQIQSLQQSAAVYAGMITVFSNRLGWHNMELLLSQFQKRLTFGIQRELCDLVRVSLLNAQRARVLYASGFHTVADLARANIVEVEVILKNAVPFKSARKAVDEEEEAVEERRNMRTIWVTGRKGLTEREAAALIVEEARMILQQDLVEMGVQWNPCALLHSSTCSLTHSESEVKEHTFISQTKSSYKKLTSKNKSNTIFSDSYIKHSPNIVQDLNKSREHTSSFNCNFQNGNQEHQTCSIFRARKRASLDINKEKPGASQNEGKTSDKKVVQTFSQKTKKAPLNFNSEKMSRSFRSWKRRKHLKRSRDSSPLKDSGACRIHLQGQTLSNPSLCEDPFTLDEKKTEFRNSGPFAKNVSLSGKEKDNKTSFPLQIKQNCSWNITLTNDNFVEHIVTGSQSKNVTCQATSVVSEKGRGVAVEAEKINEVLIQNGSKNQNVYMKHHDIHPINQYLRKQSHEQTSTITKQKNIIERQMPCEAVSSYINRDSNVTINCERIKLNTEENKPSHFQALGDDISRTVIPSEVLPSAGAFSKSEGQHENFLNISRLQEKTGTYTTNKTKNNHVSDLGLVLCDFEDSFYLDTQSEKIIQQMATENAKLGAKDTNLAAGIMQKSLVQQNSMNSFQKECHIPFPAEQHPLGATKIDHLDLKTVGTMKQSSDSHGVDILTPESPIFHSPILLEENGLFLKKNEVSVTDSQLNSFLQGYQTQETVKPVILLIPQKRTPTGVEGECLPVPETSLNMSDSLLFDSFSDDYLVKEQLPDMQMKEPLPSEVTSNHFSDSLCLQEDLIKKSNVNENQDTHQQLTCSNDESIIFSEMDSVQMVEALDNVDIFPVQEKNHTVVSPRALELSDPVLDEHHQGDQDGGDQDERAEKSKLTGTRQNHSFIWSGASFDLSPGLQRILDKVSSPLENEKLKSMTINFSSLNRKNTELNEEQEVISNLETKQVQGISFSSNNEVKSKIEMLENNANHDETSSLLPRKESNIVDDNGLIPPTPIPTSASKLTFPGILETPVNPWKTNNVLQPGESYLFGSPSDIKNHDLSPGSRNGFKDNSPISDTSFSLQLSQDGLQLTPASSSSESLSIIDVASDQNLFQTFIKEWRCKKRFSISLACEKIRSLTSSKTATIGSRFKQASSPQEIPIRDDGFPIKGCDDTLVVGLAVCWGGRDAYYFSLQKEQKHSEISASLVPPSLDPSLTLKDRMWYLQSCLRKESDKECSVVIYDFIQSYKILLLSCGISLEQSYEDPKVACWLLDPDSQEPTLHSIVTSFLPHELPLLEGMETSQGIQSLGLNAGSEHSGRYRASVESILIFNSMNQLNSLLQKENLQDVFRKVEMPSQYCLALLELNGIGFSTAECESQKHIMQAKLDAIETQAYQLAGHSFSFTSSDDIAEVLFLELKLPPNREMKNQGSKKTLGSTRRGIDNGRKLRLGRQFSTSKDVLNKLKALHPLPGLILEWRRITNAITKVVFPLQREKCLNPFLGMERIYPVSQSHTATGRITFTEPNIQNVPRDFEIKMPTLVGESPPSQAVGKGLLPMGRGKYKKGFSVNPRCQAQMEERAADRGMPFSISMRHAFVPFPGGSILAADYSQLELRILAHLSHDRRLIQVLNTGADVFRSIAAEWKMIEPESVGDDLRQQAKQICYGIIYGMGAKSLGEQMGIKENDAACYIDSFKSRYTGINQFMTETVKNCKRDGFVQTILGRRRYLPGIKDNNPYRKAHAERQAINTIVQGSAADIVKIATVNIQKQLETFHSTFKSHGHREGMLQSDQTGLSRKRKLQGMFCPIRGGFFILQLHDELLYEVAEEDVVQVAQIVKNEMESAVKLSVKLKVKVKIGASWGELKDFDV
SMILES	remaining activity
CC(=O)[C@]1(O)Cc2c(O)c3c(c(O)c2[C@@H](O[C@H]2C[C@H](N)[C@H](O)[C@H](C)O2)C1)C(=O)c1ccccc1C3=O	65% and 63.5%
CC(=O)OCC(=O)[C@@]1(O)CC[C@H]2[C@@H]3CCC4=CC(=O)C=C[C@]4(C)[C@@]3(F)[C@@H](O)C[C@@]21C	96.2%
CCOc1cc([C@@H](CS(C)(=O)=O)N2C(=O)c3cccc(NC(C)=O)c3C2=O)ccc1OC	97%
Cc1cc(C(C#N)c2ccc(Cl)cc2)c(Cl)cc1NC(=O)c1cc(I)cc(I)c1O (stereo not drawn)	84.2%
Cc1coc2c1C(=O)C(=O)c1c-2ccc2c1CCCC2(C)C	101%
Cc1cn[nH]c1	95%
O=C(O)c1cc(/N=N/c2ccc(S(=O)(=O)Nc3ccccn3)cc2)ccc1O	91.6% and 93.4%

Series 5 — cell line: A-375; concentration: 100 µM; time: 36 h
Compound	viability
OCCOCCN1CCN(C(c2ccccc2)c2ccc(Cl)cc2)CC1 (stereo not drawn)	61.5%
CC[C@H]1OC(=O)[C@@](C)(F)C(=O)[C@H](C)[C@@H](O[C@@H]2O[C@H](C)C[C@H](N(C)C)[C@H]2O)[C@](C)(OC)C[C@@H](C)C(=O)[C@H](C)[C@H]2N(CCCCn3cc(-c4cccc(N)c4)nn3)C(=O)O[C@]12C	1.32%
CC(C)C[C@H](NC(=O)[C@H](CCc1ccccc1)NC(=O)CN1CCOCC1)C(=O)N[C@@H](Cc1ccccc1)C(=O)N[C@@H](CC(C)C)C(=O)[C@@]1(C)CO1	6.83%
C#C[C@]1(O)CC[C@H]2[C@@H]3CCc4cc(OC)ccc4[C@H]3CC[C@@]21C	9.29%
O=C1[C@@H]2[C@H]3CC[C@H](C3)[C@@H]2C(=O)N1C[C@@H]1CCCC[C@H]1CN1CCN(c2nsc3ccccc23)CC1	95.2%
Oc1c(I)cc(I)c2cccnc12	21.6%
CCCCc1oc2ccc(NS(C)(=O)=O)cc2c1C(=O)c1ccc(OCCCN(CCCC)CCCC)cc1	-0.479%
O=C(O)c1ccc[n+]([O-])c1	124%
COC(=O)C1=C(C)NC(C)=C(C(=O)OC(C)C)C1c1cccc2nonc12 (stereo not drawn)	14.9%

A few entries again (series 4):
SMILES	remaining activity
Cc1cc(C(C#N)c2ccc(Cl)cc2)c(Cl)cc1NC(=O)c1cc(I)cc(I)c1O (stereo not drawn)	84.2%
CCOc1cc([C@@H](CS(C)(=O)=O)N2C(=O)c3cccc(NC(C)=O)c3C2=O)ccc1OC	97%
Cc1coc2c1C(=O)C(=O)c1c-2ccc2c1CCCC2(C)C	101%
Cc1cn[nH]c1	95%
CC(=O)OCC(=O)[C@@]1(O)CC[C@H]2[C@@H]3CCC4=CC(=O)C=C[C@]4(C)[C@@]3(F)[C@@H](O)C[C@@]21C	96.2%
